Measured values gathered from unrelated publications.
Each line is one published result; not all experiments were run side by side. Values joined by “and” are separate records of one study, mostly repeats; a detail may differ. Numbers after ± are the reported error.
SYK SH2 domains: Tyrosine-protein kinase SYK, SH2 domains (SYK, Homo sapiens, UniProt P43405)
Sequence of UniProt P45983 (whole entry, looked up): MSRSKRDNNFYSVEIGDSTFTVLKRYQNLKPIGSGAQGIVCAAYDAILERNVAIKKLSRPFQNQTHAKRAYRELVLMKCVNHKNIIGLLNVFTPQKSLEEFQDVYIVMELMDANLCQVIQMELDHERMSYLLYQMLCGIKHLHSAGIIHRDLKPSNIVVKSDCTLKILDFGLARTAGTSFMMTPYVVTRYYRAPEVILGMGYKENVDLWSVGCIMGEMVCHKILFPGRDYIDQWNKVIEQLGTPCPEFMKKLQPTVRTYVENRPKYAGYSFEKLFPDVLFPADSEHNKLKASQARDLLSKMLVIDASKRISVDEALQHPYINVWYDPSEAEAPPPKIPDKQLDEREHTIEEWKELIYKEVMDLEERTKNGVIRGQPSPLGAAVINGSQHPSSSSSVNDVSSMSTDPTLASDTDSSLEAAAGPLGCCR
Sequence of UniProt P35228 (whole entry, unmodified, looked up): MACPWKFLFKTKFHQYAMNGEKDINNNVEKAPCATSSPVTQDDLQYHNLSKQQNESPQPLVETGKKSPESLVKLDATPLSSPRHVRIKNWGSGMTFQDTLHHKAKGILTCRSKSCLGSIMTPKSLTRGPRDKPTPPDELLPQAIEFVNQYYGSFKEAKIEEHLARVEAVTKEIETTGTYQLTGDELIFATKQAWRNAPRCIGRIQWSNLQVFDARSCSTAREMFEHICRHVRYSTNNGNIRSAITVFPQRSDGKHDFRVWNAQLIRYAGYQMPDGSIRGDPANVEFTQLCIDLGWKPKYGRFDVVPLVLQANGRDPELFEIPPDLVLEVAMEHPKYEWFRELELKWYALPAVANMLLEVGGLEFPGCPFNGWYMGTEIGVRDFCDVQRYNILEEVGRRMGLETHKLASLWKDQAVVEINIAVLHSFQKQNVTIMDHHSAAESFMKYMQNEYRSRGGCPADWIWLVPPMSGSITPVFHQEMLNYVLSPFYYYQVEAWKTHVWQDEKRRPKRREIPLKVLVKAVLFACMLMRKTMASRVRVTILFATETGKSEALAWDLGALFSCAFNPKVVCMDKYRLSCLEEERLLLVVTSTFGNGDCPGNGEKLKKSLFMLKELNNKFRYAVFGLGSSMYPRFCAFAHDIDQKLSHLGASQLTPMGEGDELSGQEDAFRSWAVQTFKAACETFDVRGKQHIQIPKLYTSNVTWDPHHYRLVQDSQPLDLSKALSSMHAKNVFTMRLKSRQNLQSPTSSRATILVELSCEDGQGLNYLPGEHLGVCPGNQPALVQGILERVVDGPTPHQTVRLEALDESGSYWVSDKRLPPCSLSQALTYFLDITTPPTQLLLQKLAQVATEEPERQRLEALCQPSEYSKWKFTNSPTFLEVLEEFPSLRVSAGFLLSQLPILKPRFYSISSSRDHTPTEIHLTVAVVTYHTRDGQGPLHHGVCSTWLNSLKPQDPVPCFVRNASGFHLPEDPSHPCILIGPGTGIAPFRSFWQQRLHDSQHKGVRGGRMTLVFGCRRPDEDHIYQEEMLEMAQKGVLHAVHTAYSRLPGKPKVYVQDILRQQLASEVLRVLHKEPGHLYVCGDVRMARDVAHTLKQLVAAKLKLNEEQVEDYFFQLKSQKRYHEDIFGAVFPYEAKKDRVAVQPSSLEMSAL
Sequence of UniProt P42684 (whole entry, looked up): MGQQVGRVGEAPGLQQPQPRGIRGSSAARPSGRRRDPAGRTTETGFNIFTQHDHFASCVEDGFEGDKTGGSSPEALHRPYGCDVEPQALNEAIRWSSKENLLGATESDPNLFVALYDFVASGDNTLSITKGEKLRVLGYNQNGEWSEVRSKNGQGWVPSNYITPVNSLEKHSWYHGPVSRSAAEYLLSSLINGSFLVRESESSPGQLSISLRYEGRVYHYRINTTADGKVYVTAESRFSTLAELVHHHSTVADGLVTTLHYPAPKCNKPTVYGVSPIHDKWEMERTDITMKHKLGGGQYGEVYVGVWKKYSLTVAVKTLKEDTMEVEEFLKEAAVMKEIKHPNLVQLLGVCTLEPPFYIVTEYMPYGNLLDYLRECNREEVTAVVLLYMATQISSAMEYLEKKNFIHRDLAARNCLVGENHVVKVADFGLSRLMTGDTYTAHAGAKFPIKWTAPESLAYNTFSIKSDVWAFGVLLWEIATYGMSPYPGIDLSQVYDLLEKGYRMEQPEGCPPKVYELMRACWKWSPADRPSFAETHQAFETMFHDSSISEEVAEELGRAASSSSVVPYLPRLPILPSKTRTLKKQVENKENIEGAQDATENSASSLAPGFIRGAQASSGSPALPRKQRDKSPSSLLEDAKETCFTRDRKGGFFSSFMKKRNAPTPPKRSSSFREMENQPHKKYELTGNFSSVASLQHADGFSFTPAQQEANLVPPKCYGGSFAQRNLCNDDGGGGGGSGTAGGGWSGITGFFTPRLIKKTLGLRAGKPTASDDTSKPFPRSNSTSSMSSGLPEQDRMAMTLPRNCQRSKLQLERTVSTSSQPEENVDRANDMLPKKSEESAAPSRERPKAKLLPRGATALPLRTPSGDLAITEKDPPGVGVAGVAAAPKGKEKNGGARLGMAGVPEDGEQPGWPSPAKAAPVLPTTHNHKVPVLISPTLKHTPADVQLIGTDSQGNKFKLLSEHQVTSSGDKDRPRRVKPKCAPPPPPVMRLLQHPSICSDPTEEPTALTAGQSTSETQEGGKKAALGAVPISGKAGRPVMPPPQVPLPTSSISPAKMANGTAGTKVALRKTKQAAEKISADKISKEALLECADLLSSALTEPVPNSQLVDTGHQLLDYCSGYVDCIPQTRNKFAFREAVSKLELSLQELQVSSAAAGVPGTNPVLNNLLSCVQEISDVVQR
Sequence of UniProt Q08460 (whole entry, looked up): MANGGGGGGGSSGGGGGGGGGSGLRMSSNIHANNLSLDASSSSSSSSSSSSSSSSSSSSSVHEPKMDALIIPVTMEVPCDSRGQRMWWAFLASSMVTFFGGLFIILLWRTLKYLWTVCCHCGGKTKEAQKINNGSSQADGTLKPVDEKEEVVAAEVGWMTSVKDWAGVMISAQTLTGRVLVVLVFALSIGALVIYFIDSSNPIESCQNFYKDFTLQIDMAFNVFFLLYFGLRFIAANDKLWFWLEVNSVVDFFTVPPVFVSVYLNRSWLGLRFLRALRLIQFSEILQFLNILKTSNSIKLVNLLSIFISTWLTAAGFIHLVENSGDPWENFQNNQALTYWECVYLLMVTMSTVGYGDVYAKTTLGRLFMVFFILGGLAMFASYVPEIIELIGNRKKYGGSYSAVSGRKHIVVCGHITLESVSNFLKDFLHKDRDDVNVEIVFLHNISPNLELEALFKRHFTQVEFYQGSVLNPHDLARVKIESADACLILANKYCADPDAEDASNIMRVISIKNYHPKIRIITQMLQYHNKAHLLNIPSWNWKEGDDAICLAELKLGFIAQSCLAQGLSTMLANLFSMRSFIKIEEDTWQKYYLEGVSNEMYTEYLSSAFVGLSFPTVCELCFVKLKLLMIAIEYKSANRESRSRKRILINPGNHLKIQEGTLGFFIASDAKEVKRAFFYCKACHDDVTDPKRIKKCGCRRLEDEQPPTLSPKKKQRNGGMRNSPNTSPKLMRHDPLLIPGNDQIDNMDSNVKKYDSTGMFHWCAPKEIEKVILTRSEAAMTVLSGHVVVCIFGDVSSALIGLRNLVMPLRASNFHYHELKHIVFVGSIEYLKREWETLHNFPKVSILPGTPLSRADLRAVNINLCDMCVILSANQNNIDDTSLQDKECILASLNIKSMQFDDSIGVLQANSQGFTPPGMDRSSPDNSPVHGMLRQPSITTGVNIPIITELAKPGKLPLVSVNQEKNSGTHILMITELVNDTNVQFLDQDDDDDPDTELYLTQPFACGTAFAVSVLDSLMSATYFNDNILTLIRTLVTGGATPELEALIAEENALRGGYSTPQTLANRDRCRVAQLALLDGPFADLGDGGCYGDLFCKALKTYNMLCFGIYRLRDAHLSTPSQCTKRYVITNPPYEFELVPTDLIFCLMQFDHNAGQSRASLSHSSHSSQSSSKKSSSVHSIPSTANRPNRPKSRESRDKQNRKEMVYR
Sequence of UniProt P45974 (whole entry, looked up): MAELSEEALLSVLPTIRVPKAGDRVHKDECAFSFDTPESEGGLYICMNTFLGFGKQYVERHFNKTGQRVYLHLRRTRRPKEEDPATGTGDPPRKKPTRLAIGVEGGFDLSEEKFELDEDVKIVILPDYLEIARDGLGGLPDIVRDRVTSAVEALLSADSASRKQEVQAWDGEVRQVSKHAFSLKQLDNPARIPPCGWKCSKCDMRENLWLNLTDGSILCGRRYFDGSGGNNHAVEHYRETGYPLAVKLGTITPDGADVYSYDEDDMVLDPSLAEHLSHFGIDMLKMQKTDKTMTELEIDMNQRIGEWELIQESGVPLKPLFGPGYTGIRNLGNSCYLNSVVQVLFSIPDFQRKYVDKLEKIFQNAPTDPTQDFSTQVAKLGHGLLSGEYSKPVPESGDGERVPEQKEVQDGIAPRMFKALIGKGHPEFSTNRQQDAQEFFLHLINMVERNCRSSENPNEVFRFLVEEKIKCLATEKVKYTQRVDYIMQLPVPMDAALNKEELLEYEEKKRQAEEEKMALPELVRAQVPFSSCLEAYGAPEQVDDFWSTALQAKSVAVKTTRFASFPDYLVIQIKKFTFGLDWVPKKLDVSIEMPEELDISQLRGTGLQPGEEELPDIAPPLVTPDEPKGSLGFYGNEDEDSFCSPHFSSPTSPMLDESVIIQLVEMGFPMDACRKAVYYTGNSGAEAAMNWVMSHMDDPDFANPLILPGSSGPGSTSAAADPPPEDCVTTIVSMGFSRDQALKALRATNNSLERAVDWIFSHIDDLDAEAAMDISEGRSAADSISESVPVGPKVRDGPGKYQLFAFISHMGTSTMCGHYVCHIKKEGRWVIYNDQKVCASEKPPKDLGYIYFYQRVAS
Sequence of UniProt P94556 (whole entry, looked up): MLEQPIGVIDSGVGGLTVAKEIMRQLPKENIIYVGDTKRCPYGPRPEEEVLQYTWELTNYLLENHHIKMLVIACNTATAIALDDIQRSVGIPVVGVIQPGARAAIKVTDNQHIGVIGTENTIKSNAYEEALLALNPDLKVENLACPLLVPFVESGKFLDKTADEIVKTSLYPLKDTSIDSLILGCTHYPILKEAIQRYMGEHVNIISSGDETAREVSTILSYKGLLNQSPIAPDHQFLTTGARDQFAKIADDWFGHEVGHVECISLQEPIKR

Structure (SMILES)	target	assay	test system	setting	Kd
CC[C@H](CO)Nc1nc(NCc2ccc(-c3ccccn3)cc2)c2ncn(C(C)C)c2n1	CSNK1G2 (Homo sapiens, UniProt P78368)	competition affinity chromatography	SH-SY5Y cell extract	–	14.1 µM
O=S(=O)(O)c1nc2cc(Cl)ccc2[nH]1	racE (Bacillus subtilis, UniProt P94556)	binding, surface plasmon resonance	–	–	2 ± 1 µM
Nc1ncnc2c1ncn2[C@@H]1O[C@H](CN(CC[C@H](N)C(=O)O)Cc2cn(CCNC(=O)c3ccc4c(c3)C(=O)OC43c4ccc(O)cc4Oc4cc(O)ccc43)nn2)[C@@H](O)[C@H]1O	Genome polyprotein, methyltransferase domain (pol, Dengue virus type 3, UniProt Q6YMS4)	binding	dengue virus 3	–	0.61 µM
C[C@H](NC(=O)[C@@H](NC(=O)[C@H](CO)NC(=O)[C@H](Cc1c[nH]cn1)NC(=O)[C@@H]1CCCN1C(=O)[C@H](CC(=O)O)NC(=O)[C@H](CCC(N)=O)NC(=O)[C@H](Cc1ccc(OP(=O)(O)O)cc1)NC(=O)[C@H](Cc1c[nH]cn1)NC(=O)[C@@H]1CCCN1C(=O)[C@H](CC(=O)O)NC(=O)[C@H](CCCNC(=N)N)NC(=O)[C@H](CO)NC(=O)[C@@H]1CCCN1C(=O)[C@H](C)NC(=O)[C@@H]1CCCN1C(=O)[C@H](CC(N)=O)NC(=O)c1ccc2c(c1)C(=O)OC21c2ccc(N(C)C)cc2Oc2cc(N(C)C)ccc21)[C@@H](C)O)C(=O)N[C@@H](CC(=O)O)C(=O)O	SYK SH2 domains	binding	–	–	0.981 µM
Nc1ncnc2c1ncn2[C@@H]1O[C@H](COP(=O)(O)O)[C@@H](OP(=O)(O)O)[C@H]1O	Thermonuclease, denatured (nuc, Staphylococcus aureus, UniProt P00644)	binding	–	pH 7	780 µM
CSCC[C@H](NC(=O)[C@H](CC(C)C)NC(=O)[C@H](C)NC(=O)[C@H](CCCNC(=N)N)NC(=O)[C@H](Cc1ccc(OP(=O)(O)O)cc1)NC(=O)[C@H](Cc1ccccc1)NC(=O)[C@H](CC(N)=O)NC(=O)[C@H](CO)NC(=O)[C@H](CC(=O)O)NC(=O)[C@@H](NC(=O)[C@@H]1CCCN1C(=O)[C@H](CO)NC(=O)[C@@H]1CCCN1C(=O)[C@H](CC(C)C)NC(=O)c1ccc2c(c1)C(=O)OC21c2ccc(N(C)C)cc2Oc2cc(N(C)C)ccc21)[C@@H](C)O)C(=O)N[C@@H](CC(=O)O)C(=O)N[C@@H](CCC(=O)O)C(=O)N[C@@H](CCC(=O)O)C(=O)N[C@@H](CC(=O)O)C(=O)O	Tyrosine-protein kinase ITK/TSK, SH2 domain (ITK, Homo sapiens, UniProt Q08881)	binding	–	–	0.277 µM
CCCCCCCCCC(=O)CC(=O)N[C@H]1CCOC1=O	qscR, ligand-binding domain (Pseudomonas aeruginosa, UniProt G3XD77)	ligand binding, FRET displacement	–	ligand-binding domain	0.000724 µM
O=C(Nc1nncs1)C(F)(F)I	MAPK8 (Homo sapiens, UniProt P45983)	binding, isothermal titration calorimetry	–	pH 7.4	87.7 µM and 121 µM
CCCOC/C(=N\c1ccc(Cl)cc1C(F)(F)F)n1ccnc1	Cytochrome P450 2D6 (CYP2D6, Homo sapiens, UniProt P10635)	binding	–	20 min, pH 7.4, purified protein, 2% DMSO	7.32 µM
O=C(O)CCCN1CC=C(c2ccccc2)CC1	Ubiquitin carboxyl-terminal hydrolase 5, ZnF-UBD domain (USP5, Homo sapiens, UniProt P45974)	–	–	–	561 µM
CC(=O)N[C@H]1[C@@H](O[C@H](C)[C@H](NC(=O)[C@H](CO)NC(C)=O)C(=O)N[C@@H](CO)C(=O)NCC(=O)O)O[C@H](CO)[C@H](O)[C@@H]1O	LE1 (Glycine max, UniProt P05046)	glycan microarray	–	4 glycans per BSA	0.055 ± 0.026 µM
N=C(N)NCCC[C@H](N)C(=O)O	NOS2 (Homo sapiens, UniProt P35228, E546N)	–	–	–	235 µM and 94.4 µM
CC(=O)N[C@H]1[C@@H](OC[C@H]2O[C@@H](O)[C@H](O)[C@@H](O)[C@H]2O)O[C@H](CO)[C@H](O)[C@@H]1O	Helix pomatia agglutinin	glycan microarray	–	4 glycans per BSA	0.011 ± 0.003 µM
CC[C@H](C)[C@H](NC(=O)[C@H](Cc1ccc(OP(=O)(O)O)cc1)NC(=O)[C@H](CCC(=O)O)NC(=O)[C@@H]1CCCN1C(=O)[C@@H](NC(=O)[C@@H]1CCCN1C(=O)[C@H](CC(C)C)NC(=O)[C@H](Cc1ccccc1)NC(=O)[C@@H](NC(=O)[C@H](CC(=O)O)NC(=O)[C@H](CC(=O)O)NC(=O)c1ccc2c(c1)C(=O)OC21c2ccc(N(C)C)cc2Oc2cc(N(C)C)ccc21)[C@@H](C)O)C(C)C)C(=O)N[C@@H](CC(N)=O)C(=O)N[C@@H](CCC(N)=O)C(=O)N[C@@H](CO)C(=O)N[C@H](C(=O)N1CCC[C@H]1C(=O)N[C@@H](CCCCN)C(=O)N[C@@H](CC(=O)O)C(=O)O)C(C)C	Tyrosine-protein kinase ABL2, SH2 domain (ABL2, Homo sapiens, UniProt P42684)	binding	–	–	0.152 µM
CCN(CC)c1ccc2c(-c3ccccc3C(=O)O)c3ccc(=[N+](CC)CC)cc-3oc2c1	Phenylalanine-4-hydroxylase (phhA, Chromobacterium violaceum, UniProt P30967, F107L/P134L/W180A/Y130S/Y179W)	–	–	–	89 µM
CSCC[C@H](NC(=O)[C@H](Cc1ccc(OP(=O)(O)O)cc1)NC(=O)CNC(=O)CNC(=O)[C@H](CC(=O)O)NC(=O)[C@H](CO)NC(=O)[C@H](CCC(=O)O)NC(=O)CNC(=O)[C@@H](NC(=O)[C@H](CC(C)C)NC(=O)[C@H](CO)NC(=O)c1ccc2c(c1)C(=O)OC21c2ccc(N(C)C)cc2Oc2cc(N(C)C)ccc21)[C@@H](C)O)C(=O)N[C@@H](CC(=O)O)C(=O)N[C@@H](CCSC)C(=O)N[C@@H](CO)C(=O)N[C@@H](CCCCN)C(=O)N[C@@H](CC(=O)O)C(=O)N[C@@H](CCC(=O)O)C(=O)N[C@@H](CC(=O)O)C(=O)O	SYK SH2 domains	binding	–	–	0.288 µM
CCCC(=O)CC(=O)N[C@H]1CCOC1=O	qscR, DNA-bound dimer (Pseudomonas aeruginosa, UniProt G3XD77)	ligand binding, FRET displacement	–	protein with DNA	0.0377 µM
CC[C@H](C)[C@H](NC(=O)[C@H](CCC(N)=O)NC(=O)[C@@H](NC(=O)[C@@H]1CCCN1C(=O)[C@@H](NC(=O)[C@H](CO)NC(=O)[C@H](Cc1ccccc1)NC(=O)[C@@H]1CCCN1C(=O)[C@H](CCC(N)=O)NC(=O)[C@@H](N)CCSC)[C@@H](C)CC)C(C)C)C(=O)N[C@H](C(=O)N[C@@H](CC(C)C)C(=O)N[C@@H](CCC(N)=O)C(=O)NCC(=O)N[C@@H](CO)C(=O)N[C@@H](CCCNC(=N)N)C(=O)N[C@@H](CCCNC(=N)N)C(=O)N[C@@H](CCCNC(=N)N)C(=O)N[C@@H](CCC(N)=O)C(=O)NCC(=O)N[C@@H](CCCNC(=N)N)C(N)=O)[C@@H](C)O	Kcnma1 (Mus musculus, UniProt Q08460)	ion current, blocker, inside-out patch clamp	Xenopus oocytes	range over 0.25 µM, pH 7.0, 22–24 °C, at 0 mV, together with: 10 µM cytosolic Ca2+	1.2 µM
CC(C)C[C@H](NC(=O)[C@H](Cc1ccc(OP(=O)(O)O)cc1)NC(=O)[C@H](CCC(=O)O)NC(=O)[C@@H]1CCCN1C(=O)[C@H](CC(N)=O)NC(=O)CNC(=O)[C@@H](NC(=O)[C@H](C)NC(=O)[C@@H](NC(=O)[C@H](CO)NC(=O)[C@H](Cc1c[nH]cn1)NC(=O)c1ccc2c(c1)C(=O)OC21c2ccc(N(C)C)cc2Oc2cc(N(C)C)ccc21)[C@@H](C)O)C(C)C)C(=O)N[C@@H](CC(N)=O)C(=O)N[C@H](C(=O)N[C@H](C(=O)N[C@@H](CCC(N)=O)C(=O)N1CCC[C@H]1C(=O)N[C@H](C(=O)N[C@@H](CC(=O)O)C(=O)O)[C@@H](C)O)C(C)C)[C@@H](C)O	Guanine nucleotide exchange factor VAV2, SH2 domain (VAV2, Homo sapiens, UniProt P52735)	binding	–	–	0.373 µM

Excerpt of the above:
Structure (SMILES)	target	assay	test system	setting	Kd
CC(C)C[C@H](NC(=O)[C@H](Cc1ccc(OP(=O)(O)O)cc1)NC(=O)[C@H](CCC(=O)O)NC(=O)[C@@H]1CCCN1C(=O)[C@H](CC(N)=O)NC(=O)CNC(=O)[C@@H](NC(=O)[C@H](C)NC(=O)[C@@H](NC(=O)[C@H](CO)NC(=O)[C@H](Cc1c[nH]cn1)NC(=O)c1ccc2c(c1)C(=O)OC21c2ccc(N(C)C)cc2Oc2cc(N(C)C)ccc21)[C@@H](C)O)C(C)C)C(=O)N[C@@H](CC(N)=O)C(=O)N[C@H](C(=O)N[C@H](C(=O)N[C@@H](CCC(N)=O)C(=O)N1CCC[C@H]1C(=O)N[C@H](C(=O)N[C@@H](CC(=O)O)C(=O)O)[C@@H](C)O)C(C)C)[C@@H](C)O	Guanine nucleotide exchange factor VAV2, SH2 domain (VAV2, Homo sapiens, UniProt P52735)	binding	–	–	0.373 µM
